Published values pooled from the literature.
Every numbered part comes from another study and shows a few of its results, in no order.

Series 1
Target: RING finger protein unkempt homolog, zinc fingers 1-6, GST-SBP tag (UNK, Homo sapiens, UniProt Q9C0B0, residues 30-357)
UniProt Q9C0B0, sequence (30-357, looked up): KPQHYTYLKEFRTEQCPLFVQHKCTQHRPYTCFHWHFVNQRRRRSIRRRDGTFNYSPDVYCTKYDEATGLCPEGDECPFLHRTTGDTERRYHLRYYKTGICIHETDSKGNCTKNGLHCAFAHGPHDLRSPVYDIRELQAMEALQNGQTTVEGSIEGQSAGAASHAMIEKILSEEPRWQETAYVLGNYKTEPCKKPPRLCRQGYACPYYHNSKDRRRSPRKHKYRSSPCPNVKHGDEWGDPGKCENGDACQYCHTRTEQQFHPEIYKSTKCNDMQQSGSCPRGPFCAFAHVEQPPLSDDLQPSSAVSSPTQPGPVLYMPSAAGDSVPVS
Method: RNA Bind-n-Seq
Molecule type: RNA
Medium: in vitro
Concentration: not given
Setting: RNA with constant flanks, ends assumed
Relative to: input RNA pool
Reading: higher = stronger binding
Constant ends, left off below: GGGAGUUCUACAGUCCGACGAUC … CAACAGAGGAUUGAGCAUCA
| Oligonucleotide | bound/input enrichment [ratio] |
| --- | --- |
| AAGAGGGAUCUGUUUGCAAAAAUUAUUGAAGAUCAUCUGGCAAGCAGAAGUGAAGAGAACACCGACCAGCUUGCAGGAUGAACAAGCUGCCCUGUUAGUGCAGUGCUUUGAAGUGGGACC | 0.201 |
| CCAACGUUAGAAGCAGCCUGGCCUCAUCUGCAGCUUGUUUAUGAAUUUUUCUUAAGAUUUUCCGAGUCUCCAGAUUUCCAACCCAAUAUAGCAAAGAAAUAUAUUGAUCAGAAGUUUGUA | 2.95 |
| CAGAAACUUUGUGAAAUUGAAAGGAUACAUUUCUUUCUGAGUAAGAAAAAACCAGAUGAACUCCGAAAUCUACACAAACUGCUUUACAACAGGCCGGGCACAGUGUCCUCGUUGAAGAAG | 0.238 |
| AGCGAGCGAAAUCUUUGUACUUCUGAGUUCUUGCUGUAUGUAUGUUUUGUUUUAAAUCUGAUCCGGGACACCCAGCAGCUGGCCGGGAUUCUUGGAUUGCUCCUUGGGAGUUAAGAUUGU | 0.119 |
| UUUGCAAAUUAUAUUGCCAGAGACACACGUCGUCUUGGUGCAACAAUACUAGACCGUAUACACCGUCUUCAAAUUAAUAGCAGUUUGAGCACCUACUCUCUCGUAGACUCUGUUGGAAAU | 0.627 |
| GUGGUUCUGGUCACCGUCGCUGCCAUUGUUAGAAAGAUUUUUAAUGAUAUGCGGGGUGUCGCCGCUAAACAACGGACACAUACAAGAAAACAACAAUUUGAACAUGGAGAGUUGGUUUAC | 2.54 |

Series 2
Target: Sal-like protein 4, full length isoform A (SALL4, Homo sapiens, UniProt Q9UJQ4, residues 1-1053)
UniProt Q9UJQ4, sequence (whole entry, looked up): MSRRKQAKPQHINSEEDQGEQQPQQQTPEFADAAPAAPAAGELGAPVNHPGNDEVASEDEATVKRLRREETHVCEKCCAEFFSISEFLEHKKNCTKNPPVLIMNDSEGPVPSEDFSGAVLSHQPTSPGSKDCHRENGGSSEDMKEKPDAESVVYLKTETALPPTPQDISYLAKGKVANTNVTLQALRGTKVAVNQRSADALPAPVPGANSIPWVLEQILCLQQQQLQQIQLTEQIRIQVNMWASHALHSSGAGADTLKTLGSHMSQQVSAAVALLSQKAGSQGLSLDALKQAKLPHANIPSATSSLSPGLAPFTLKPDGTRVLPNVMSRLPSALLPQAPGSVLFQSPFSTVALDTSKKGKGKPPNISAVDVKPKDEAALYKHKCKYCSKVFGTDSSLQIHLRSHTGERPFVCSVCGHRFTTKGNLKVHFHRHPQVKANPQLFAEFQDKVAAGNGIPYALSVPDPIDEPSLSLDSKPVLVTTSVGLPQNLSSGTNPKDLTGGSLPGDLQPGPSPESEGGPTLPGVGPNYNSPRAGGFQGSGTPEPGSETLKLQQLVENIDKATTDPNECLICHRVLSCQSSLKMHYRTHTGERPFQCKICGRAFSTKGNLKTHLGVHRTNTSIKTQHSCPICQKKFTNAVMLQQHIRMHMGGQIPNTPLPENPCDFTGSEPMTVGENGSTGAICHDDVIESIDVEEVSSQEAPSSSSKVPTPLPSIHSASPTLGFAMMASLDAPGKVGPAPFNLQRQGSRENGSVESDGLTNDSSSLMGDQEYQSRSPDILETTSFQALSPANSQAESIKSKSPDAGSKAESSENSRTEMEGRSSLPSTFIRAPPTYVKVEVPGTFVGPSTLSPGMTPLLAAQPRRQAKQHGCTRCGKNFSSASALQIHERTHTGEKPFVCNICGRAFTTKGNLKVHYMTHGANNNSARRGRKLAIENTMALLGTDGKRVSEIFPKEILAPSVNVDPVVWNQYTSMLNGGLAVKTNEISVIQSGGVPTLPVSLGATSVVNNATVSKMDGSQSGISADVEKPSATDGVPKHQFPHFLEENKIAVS
Method: universal PBM
Molecule type: double-stranded DNA, one strand shown
Medium: in vitro
Concentration: 600 nM
Setting: 8-mer, flanks averaged, mean of replicates
Reading: higher = stronger binding
| Oligonucleotide | E-score |
| --- | --- |
| CACGTATG | 0.0793 |
| CAGTCGAG | -0.163 |
| AAGCATGG | -0.0664 |
| CGCCTTAG | -0.218 |
| ATCCGTAC | 0.128 |
| CTACTCCC | -0.011 |
| CAGGGGCG | -0.389 |
| ATGAGACC | -0.105 |
| CTGATAGA | 0.16 |

Series 3
Target: Histone acetyltransferase KAT6A, both winged helices, GST fusion (KAT6A, Homo sapiens, UniProt Q92794, residues 1-181)
Method: protein binding microarray
Molecule type: double-stranded DNA, one strand shown
Medium: in vitro
Concentration: not given
Setting: 8-mer, flanks averaged, mean of 2 arrays, mostly near background
Relative to: not given
Reading: higher = stronger binding
Construct (chain): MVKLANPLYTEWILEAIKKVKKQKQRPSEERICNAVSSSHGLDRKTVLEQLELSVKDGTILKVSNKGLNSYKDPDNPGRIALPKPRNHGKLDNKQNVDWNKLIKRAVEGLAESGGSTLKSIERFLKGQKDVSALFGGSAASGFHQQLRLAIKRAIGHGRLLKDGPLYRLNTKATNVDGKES
| Oligonucleotide | E-score |
| --- | --- |
| AAGCGCGA | 0.235 |
| GTGGATGA | -0.229 |
| AAAAAAGA | -0.157 |
| CTTGATCA | -0.00686 |
| AACTCACG | -0.0478 |
| GTTAATAA | 0.00899 |
| TAAGTTGA | -0.0657 |
| CACTAGGA | -0.0837 |

Mixed results
| Molecule | target | test | test system | conditions | how to read | measurement | value |
| --- | --- | --- | --- | --- | --- | --- | --- |
| PhoQ, residues 284 288 289 292 302 303 SIHMAM | PhoP, residues 12 14 15 18 19 LWHCS (Escherichia coli, UniProt P23836) | Sort-seq, item: YFP reporter | E. coli | PhoQ-PhoP variant library, together with: 10 µM Mg2+ | relative to: high Mg2+ state, higher = stronger signaling | fold induction | 3.63 |

Some of these lines once more (series 3):
| Oligonucleotide | E-score |
| --- | --- |
| TAAGTTGA | -0.0657 |
| CACTAGGA | -0.0837 |
